Measurements gathered from unrelated publications.
“And” joins repeats or separate records; there may be more than shown.
Sequence of UniProt P49116 (whole entry, looked up): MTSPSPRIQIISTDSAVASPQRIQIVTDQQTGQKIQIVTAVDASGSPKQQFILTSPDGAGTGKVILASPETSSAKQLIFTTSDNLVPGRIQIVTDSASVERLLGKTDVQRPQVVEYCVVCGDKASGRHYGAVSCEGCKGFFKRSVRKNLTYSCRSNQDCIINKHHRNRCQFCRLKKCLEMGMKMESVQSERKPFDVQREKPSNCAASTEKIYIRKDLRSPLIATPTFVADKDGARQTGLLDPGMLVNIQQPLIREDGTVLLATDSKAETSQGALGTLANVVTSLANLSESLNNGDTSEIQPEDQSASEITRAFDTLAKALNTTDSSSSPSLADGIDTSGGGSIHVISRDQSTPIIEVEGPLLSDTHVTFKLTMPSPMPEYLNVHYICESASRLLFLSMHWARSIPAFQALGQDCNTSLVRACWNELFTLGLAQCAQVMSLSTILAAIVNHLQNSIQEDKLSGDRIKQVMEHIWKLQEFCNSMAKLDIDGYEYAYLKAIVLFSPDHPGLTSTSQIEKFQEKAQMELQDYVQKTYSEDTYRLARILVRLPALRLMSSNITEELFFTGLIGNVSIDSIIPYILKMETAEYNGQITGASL

`COC(=O)c1ccc(N2CCN(C)CC2)c(NC(=O)c2cccc(OC)c2)c1` gave a viability of 160% (OCI-Ly1; 0.5 µM, 120 h).
For `CCc1cc(C(=O)NC)c2nccc(N3CCc4c(cc(Cn5ccnc5)cc4-c4cn(C)nc4C(F)(F)F)C3=O)c2c1`, the AUC(0-last) was 126000 ng·h/mL (Sprague Dawley rat, male, plasma; oral, 100 mg/kg twice daily, 7 days).
With `NC1(C(=O)N[C@@H](CCO)c2ccc(Cl)cc2)CCN(c2nc[nH]c3nccc2-3)CC1` the AUC(0-last) was 6640 ng·h/mL and 2570 ng·h/mL and 5900 ng·h/mL and 2850 ng·h/mL and 3240 ng·h/mL (human, plasma; oral, 480 mg single dose).
`CC(C)c1nc(N(C)S(C)(=O)=O)nc(-c2ccc(F)cc2)c1/C=C/[C@@H](O)C[C@@H](O)CC(=O)O` gave an AUC(0-last) of 40.2 ng·h/mL (healthy volunteers, plasma; oral, 10 mg single dose, day 1, given alone, BCRP probe).
`CCn1cc(C(=O)N2CCOCC2)c(=O)c2cc(NC3Cc4ccccc4C3)cnc21` gave an AUC(0-last) of 178 ng·h/mL (human, fasted; oral suspension, 5 mg single dose, arithmetic mean).
`CC(=O)N[C@H]1CC[C@H](NC(=O)CN2CCN(c3nncc(-c4ccc(C)cc4)n3)CC2)CC1` gave an AUC(0-last) of 4720 ng·h/mL (men aged ≥65 years, plasma; oral, 100 mg single dose, study).
`C[C@H]1CN(C(=O)CC#N)[C@]12CCN(c1ncnc3[nH]ccc13)C2` has an AUC(0-last) of 1800 ng·h/mL (healthy Japanese males, plasma; oral, 50 mg single dose).
For `COc1cccc(-c2n[nH]c(SCc3ccccn3)n2)c1OC`, the AUC(0-last) was 14200 ng·h/mL (Sprague-Dawley rat, female, plasma; oral gavage, 10 mg/kg).
The AUC(0-last) of `CCCCCCCCc1ccc(CCC(N)(CO)CO)cc1` is reported as 68.5 ng·h/mL (male Sprague-Dawley rat, plasma; oral, 1 mg/kg, single dose).
With `C[C@@]1(c2cc(NC(=O)c3ccc(C#N)cn3)ccc2F)C=CSC(N)=N1` the AUC(0-last) was 61.6 ng·h/mL (young men, plasma; oral, 1 mg single dose).
For `CN1CCC[C@H](CN2c3ccccc3Sc3ccccc32)C1.Cl`, the AUC(0-last) was 71500 ng·h/mL (female Wistar rats, brain; oral, 16 mg/kg single dose).
With `CC[C@H](C)CCCCC(=O)N[C@@H](CCN)C(=O)N[C@H](C(=O)N[C@@H](CCN)C(=O)N[C@H]1CCNC(=O)[C@H]([C@@H](C)O)NC(=O)[C@H](CCN)NC(=O)[C@H](CCN)NC(=O)[C@H](CC(C)C)NC(=O)[C@@H](Cc2ccccc2)NC(=O)[C@H](CCN)NC1=O)[C@@H](C)O` the AUC(0-last) was 31300 ng·h/mL (ESKD on long-term intermittent haemodialysis, plasma; intravenous infusion, 0.75 mg/kg single dose over 1 h, arithmetic mean).
`CCCCCCCOc1ccc(CCC(N)(CO)CO)cc1C(F)(F)F.Cl` has an AUC(0-last) of 3360 ng·h/g (Sprague-Dawley rat, heart; oral, 1 mg/kg, single dose).
`CC1(C)S[C@@H]2[C@H](NC(=O)[C@H](N)c3ccccc3)C(=O)N2[C@H]1C(=O)O` has a Kd of 916 pM (Nuclear receptor subfamily 2 group C member 2, ligand-binding domain (Homo sapiens, UniProt P49116); SPR imaging).
The AUC(0-last) of `COc1ncc(-c2nc3c(n2C(C)C)[C@H](c2ccc(Cl)cc2)N(c2cc(Cl)cn(C)c2=O)C3=O)c(OC)n1` is reported as 23700 ng·h/mL (LC-MS/MS, noncompartmental; human, plasma; oral, 150 mg, cycle 1 day 1, high-dose, geometric mean).
With `CCOC(=O)CCNc1cc(N2CCc3ccccc3CC2)nc(-c2ccccn2)n1` the viability was 98.4% (OCI-Ly1; 1 µM, 120 h).
The AUC(0-last) of `CC(C)c1nc(N(C)S(C)(=O)=O)nc(-c2ccc(F)cc2)c1/C=C/[C@@H](O)C[C@@H](O)CC(=O)O` is reported as 10600 ng·h/mL and 15400 ng·h/mL and 6080 ng·h/mL (Wistar albino rat, both sexes, plasma; oral, 20 mg/kg).

Excerpt of the above:
`COC(=O)c1ccc(N2CCN(C)CC2)c(NC(=O)c2cccc(OC)c2)c1` gave a viability of 160% (OCI-Ly1; 0.5 µM, 120 h).
